Measured values pooled from the literature.
Protocols differ between the studies behind these lines.
Organism: Trypanosoma brucei

CCCCCC(=O)NC(CC(=O)N(CC)CC)C(=O)NC(Cc1ccc(F)cc1)C(=O)NC(Cc1ccc(F)cc1F)C(=O)C1(C)CO1 (stereo not drawn)
EC50 (parasite growth, SYBR Green; 72 h): 39 nM

Cc1ccc(Cn2cc(C(=O)N/N=C/c3ccc([N+](=O)[O-])o3)c(=O)c3ccc(Oc4ccccc4)cc32)cc1
EC50 (parasite growth, resazurin; 72 h): 210 nM

O=C(O)CN1C(=O)CNC2(C1=O)C1CC3CC(C1)CC2C3 (stereo not drawn)
IC50 (parasite growth; pH 7.4, blood stage): 469000 nM

CN(C)CCNC(=O)c1cccn2c(=O)c3cc4ccccc4cc3nc12
downregulated genes (RNA-seq; Lister 427 bloodstream form; 2 × EC50, 4 h, log2 FC 1, FDR 0.05; relative to: untreated): 270 genes

O=C(O)CN1C(=O)CNC2(CCCCCCC2)C1=O
IC50 (parasite growth; pH 7.4, blood stage): 760000 nM

CCCCCC(=O)N[C@@H](Cc1ccc(N)cc1)C(=O)N[C@@H](CCCC)C(=O)N[C@@H](CC(C)C)C(=O)[C@@]1(C)CO1
EC50 (parasite growth, SYBR Green; 72 h): 228 nM

C[n+]1cc(NC(=O)c2ccc3ccc4ccc(C(=O)Nc5cc6ccccc6[n+](C)c5)nc4c3n2)cc2ccccc21
unchanged genes (RNA-seq; Lister 427 bloodstream form; 2 × EC50, 4 h; relative to: untreated): 16900 genes

CN1CC(=O)NC(=O)C12CCCCCC2
IC50 (parasite growth; pH 7.4, blood stage): > 400000 nM

Cc1cnc(CNC(=O)c2c(=O)c3ccc(N4CCCN(C)CC4)nc3n3c2sc2ccccc23)cn1
upregulated genes (RNA-seq; Lister 427 bloodstream form; 2 x EC50, 4 h, log2 FC ±1, FDR 0.05; relative to: untreated): 43 genes

CCCCCC(=O)N[C@H](C(=O)N[C@@H](CCS(C)(=O)=O)C(=O)N[C@@H](CC(C)C)C(=O)[C@@]1(C)CO1)C(C)C
EC50 (parasite growth, SYBR Green; 72 h): 31 nM

O=C(O)CN1C(=O)C(Cc2ccccc2)NC2(C1=O)C1CC3CC(C1)CC2C3 (stereo not drawn)
IC90 (parasite growth; pH 7.4, blood stage): 208000 nM

CCCCCC(=O)N[C@@H](Cc1ccc(NC(=O)OC(C)(C)C)cc1)C(=O)N[C@@H](CCCC)C(=O)N[C@@H](CC(C)C)C(=O)[C@@]1(C)CO1
EC50 (parasite growth, SYBR Green; 72 h): > 4000 nM

CNC(=O)c1c(F)cccc1Nc1nc(Nc2cc3c(cc2OC)CCN3C(=O)CN(C)C)nc2[nH]ccc12
EC50 (parasite growth): 1980 nM

O=C1NC(=O)C2(N[C@@H]1Cc1ccccc1)C1CC3CC(C1)CC2C3 (stereo partly drawn)
IC50 (parasite growth; pH 7.4, blood stage): 38600 nM

CCCCCC(=O)N[C@@H](Cc1ccc(N)cc1)C(=O)N[C@@H](CCCC)C(=O)N[C@@H](Cc1ccccc1)C(=O)[C@@]1(C)CO1
EC50 (parasite growth, SYBR Green; 72 h): 567 nM
